Measurements of several laboratories.
Numbers after ± are the reported error.
FLP: Female-specific lacrimal gland protein (FLP, Mesocricetus auratus, UniProt Q99MG7)
Chain of UniProt Q99MG7 (whole entry, looked up): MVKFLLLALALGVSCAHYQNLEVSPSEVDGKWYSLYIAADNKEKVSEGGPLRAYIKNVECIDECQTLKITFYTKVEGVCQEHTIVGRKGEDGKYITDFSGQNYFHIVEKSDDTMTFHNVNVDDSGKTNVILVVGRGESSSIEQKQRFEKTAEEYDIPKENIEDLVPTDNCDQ
Chain of UniProt Q5S006 (whole entry, looked up): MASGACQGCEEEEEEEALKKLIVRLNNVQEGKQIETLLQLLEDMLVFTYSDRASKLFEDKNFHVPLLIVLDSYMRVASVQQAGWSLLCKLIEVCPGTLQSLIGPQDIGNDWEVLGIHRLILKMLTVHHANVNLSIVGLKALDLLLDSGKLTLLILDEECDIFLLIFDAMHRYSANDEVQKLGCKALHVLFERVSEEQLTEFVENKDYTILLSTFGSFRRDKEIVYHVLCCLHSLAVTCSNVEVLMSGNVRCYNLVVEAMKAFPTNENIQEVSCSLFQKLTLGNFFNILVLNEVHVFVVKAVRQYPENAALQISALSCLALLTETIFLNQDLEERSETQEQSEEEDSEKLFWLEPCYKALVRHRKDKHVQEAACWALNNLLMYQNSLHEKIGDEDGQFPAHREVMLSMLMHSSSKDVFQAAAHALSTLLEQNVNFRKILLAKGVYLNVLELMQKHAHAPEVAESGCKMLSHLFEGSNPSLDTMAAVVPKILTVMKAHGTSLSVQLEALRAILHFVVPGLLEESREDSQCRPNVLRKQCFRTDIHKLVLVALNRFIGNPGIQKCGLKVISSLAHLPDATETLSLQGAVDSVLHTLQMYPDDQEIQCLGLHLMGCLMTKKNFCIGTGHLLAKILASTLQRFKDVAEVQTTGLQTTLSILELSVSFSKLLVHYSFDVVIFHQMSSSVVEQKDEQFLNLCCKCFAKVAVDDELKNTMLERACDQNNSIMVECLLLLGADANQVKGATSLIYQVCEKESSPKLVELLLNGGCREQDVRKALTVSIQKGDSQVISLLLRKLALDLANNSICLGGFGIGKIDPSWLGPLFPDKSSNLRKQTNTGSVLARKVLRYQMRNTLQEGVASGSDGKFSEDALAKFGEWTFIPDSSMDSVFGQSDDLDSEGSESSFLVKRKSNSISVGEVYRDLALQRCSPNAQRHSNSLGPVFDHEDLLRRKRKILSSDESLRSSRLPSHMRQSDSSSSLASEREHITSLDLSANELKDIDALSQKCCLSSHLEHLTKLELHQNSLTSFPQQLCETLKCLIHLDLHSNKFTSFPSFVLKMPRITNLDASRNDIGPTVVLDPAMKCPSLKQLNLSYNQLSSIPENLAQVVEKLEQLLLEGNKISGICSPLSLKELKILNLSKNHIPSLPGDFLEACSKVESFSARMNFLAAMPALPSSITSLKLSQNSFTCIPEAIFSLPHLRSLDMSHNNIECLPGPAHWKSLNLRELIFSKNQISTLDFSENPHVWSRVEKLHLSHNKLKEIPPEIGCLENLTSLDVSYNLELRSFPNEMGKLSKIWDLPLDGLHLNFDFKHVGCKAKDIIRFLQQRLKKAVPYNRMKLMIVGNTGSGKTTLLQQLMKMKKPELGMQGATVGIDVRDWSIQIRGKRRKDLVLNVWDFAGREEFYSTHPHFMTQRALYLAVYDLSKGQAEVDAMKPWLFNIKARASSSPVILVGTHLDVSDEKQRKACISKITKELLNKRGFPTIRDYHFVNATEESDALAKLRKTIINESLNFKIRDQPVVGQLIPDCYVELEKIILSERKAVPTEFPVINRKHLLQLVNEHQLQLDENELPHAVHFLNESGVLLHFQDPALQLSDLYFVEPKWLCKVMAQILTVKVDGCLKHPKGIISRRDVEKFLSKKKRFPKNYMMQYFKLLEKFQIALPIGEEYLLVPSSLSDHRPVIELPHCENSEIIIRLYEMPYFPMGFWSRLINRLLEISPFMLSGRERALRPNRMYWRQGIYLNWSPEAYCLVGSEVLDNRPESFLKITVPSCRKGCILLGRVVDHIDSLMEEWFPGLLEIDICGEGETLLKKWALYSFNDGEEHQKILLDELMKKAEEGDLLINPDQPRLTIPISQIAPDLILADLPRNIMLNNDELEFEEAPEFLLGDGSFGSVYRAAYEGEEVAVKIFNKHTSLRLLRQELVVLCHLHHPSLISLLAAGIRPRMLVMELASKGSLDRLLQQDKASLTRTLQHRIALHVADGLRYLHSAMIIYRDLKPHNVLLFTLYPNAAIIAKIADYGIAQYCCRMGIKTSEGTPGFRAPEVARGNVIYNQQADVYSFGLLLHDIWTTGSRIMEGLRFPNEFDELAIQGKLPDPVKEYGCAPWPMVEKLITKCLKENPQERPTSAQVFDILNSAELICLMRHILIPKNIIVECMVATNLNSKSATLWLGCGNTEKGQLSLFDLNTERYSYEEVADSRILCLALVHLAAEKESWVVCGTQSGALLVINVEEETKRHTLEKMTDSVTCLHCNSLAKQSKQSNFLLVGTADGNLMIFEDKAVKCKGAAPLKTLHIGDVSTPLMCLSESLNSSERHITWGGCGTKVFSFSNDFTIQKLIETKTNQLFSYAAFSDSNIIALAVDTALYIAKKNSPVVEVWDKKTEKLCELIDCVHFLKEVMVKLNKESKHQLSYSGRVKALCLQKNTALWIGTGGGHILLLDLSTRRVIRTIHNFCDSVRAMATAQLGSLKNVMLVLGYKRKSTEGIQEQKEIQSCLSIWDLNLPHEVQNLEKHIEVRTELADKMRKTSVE
Chain of UniProt Q9H7Z6 (whole entry, looked up): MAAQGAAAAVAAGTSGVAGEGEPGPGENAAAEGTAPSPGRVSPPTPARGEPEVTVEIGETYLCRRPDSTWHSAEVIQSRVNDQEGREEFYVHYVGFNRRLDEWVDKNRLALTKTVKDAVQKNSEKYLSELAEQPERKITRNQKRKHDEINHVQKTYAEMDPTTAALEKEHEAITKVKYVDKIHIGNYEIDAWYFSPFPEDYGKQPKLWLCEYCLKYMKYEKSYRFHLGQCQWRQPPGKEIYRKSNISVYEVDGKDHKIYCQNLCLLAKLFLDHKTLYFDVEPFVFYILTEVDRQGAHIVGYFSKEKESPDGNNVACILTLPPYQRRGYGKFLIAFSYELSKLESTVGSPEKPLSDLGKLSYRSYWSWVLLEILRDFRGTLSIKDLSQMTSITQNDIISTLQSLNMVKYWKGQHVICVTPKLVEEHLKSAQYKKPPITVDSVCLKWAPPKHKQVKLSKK
Chain of UniProt Q00194 (whole entry, looked up): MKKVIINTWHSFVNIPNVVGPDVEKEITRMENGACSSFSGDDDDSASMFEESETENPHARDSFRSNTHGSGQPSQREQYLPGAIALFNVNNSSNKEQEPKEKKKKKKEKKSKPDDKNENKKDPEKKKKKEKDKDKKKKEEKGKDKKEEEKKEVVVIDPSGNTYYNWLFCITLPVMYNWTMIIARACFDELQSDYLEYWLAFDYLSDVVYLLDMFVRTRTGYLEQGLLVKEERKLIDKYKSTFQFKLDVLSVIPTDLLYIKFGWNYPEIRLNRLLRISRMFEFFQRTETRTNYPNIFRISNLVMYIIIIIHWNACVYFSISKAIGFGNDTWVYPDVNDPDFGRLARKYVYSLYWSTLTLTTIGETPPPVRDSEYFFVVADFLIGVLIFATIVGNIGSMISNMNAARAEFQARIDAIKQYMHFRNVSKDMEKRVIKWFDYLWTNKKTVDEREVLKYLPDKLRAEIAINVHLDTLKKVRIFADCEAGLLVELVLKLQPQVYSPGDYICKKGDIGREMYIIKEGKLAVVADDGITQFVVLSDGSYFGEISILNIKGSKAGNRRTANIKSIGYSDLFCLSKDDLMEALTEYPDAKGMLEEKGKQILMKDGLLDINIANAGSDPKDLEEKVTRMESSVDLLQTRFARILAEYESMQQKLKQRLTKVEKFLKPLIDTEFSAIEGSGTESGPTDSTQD
Chain of UniProt P40261 (whole entry, looked up): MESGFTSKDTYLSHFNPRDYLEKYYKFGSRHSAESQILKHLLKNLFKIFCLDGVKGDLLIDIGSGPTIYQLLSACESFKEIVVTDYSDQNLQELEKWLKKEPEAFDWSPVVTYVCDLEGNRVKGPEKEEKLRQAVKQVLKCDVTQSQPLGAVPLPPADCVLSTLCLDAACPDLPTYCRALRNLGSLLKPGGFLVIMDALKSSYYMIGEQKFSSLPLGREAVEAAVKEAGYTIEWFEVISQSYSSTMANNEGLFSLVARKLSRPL

SMILES	target	test	test system	conditions	Ki
Nc1ncnc2c1ncn2[C@@H]1O[C@H](COP(=O)(O)OP(=O)(O)C(Cl)(Cl)P(=O)(O)O)[C@@H](O)[C@H]1O	Tyrosine-protein kinase JAK3 (JAK3, Homo sapiens, UniProt P52333)	enzyme activity, inhibitor	–	–	0.004 to 0.011 µM
CCCN(CC[C@]1(O)C[C@@H](NS(=O)(=O)c2ccccc2Cl)C1)[C@H]1CCc2nc(N)sc2C1 (relative stereo)	dopamine D2-like receptor, rat	radioligand binding	rat striatal membranes	high-affinity component, together with: [3H]spiperone	0.286 ± 0.049 µM
CC(C)CCCC(C)CCO (stereo not drawn)	FLP	binding, fluorescence displacement	–	together with: 1-NPN 2 µM	0.39 µM
O=C(O)c1c(O)cccc1CCCCCO	Histone acetyltransferase KAT8 (KAT8, Homo sapiens, UniProt Q9H7Z6)	enzyme activity, inhibitor	–	up to 400 µM, together with: 4 µM acetyl-CoA, 60 µM histone substrate	no inhibition
Nc1cc[nH]c(=O)n1	uracil transporter	uracil uptake, inhibitor	Trypanosoma brucei brucei, bloodstream form	30 s, together with: 0.15 µM [3H]-uracil	> 2500 µM
Nc1ncnc2c1ncn2[C@@H]1O[C@H](COP(=O)(O)OP(=O)(O)O)[C@@H](O)[C@H]1O	Leucine-rich repeat serine/threonine-protein kinase 2 (Lrrk2, Mus musculus, UniProt Q5S006)	LRRKtide phosphorylation, inhibitor, radiometric	–	Ki,e, ATP varied	200 ± 20 µM
CCOC(=O)[C@]1(CS)N[C@@H](C(=O)O)C(C)(C)S1	sfhI (Serratia fonticola, UniProt Q9RMI1)	enzyme activity, inhibitor	–	pH 7.5, 30 °C, together with: imipenem substrate	1 ± 0.1 µM
NC(=O)c1ncn([C@H]2[C@H](O)[C@H](O)[C@]3(CO)C[C@H]23)n1	off-target receptors and transporters, human	radioligand binding	–	PDSP screen	> 1 µM
O=c1c(-c2ccc(O)cc2)coc2cc(O)cc(O)c12	Cyclic nucleotide-gated channel alpha-1 (CNGA1, Bos taurus, UniProt Q00194)	cGMP-activated ion current, inhibitor, inside-out patch clamp	Xenopus oocytes	together with: AMP-PNP 200 µM	9.3 ± 0.9 µM
CC12CCC(CC1)C(C)(C)O2	FLP	binding, fluorescence displacement	–	together with: 1-NPN 2 µM	0.24 µM
CCCN(CCC1(O)CC(NS(=O)(=O)c2cccc(OC)c2)C1)[C@H]1CCc2nc(N)sc2C1 (stereo in doubt)	dopamine D2-like receptor, rat	radioligand binding	rat striatal membranes	high-affinity component, together with: [3H]spiperone	0.16 ± 0.0085 µM
NCCCNc1ncnc2c1ncn2[C@@H]1O[C@H](CN(CC#Cc2cccc(C(N)=O)c2)CC[C@H](N)C(=O)O)[C@@H](O)[C@H]1O	Nicotinamide N-methyltransferase (NNMT, Homo sapiens, UniProt P40261)	ligand displacement, FP	–	–	0.31 µM
